Experimental data from different studies.
Parts stem from different laboratories: compare values within a part only. Changes are numbered by the printed parent chain.

Block 1 — technique: RNA Bind-n-Seq; molecule type: RNA; matrix: in vitro; concentration: not given; notes: RNA with constant flanks, ends assumed; baseline: input RNA pool; reading: higher = stronger binding
Target: RING finger protein unkempt homolog, zinc fingers 1-6, GST-SBP tag (UNK, Homo sapiens, UniProt Q9C0B0, residues 30-357)
Chain of UniProt Q9C0B0 (30-357, looked up): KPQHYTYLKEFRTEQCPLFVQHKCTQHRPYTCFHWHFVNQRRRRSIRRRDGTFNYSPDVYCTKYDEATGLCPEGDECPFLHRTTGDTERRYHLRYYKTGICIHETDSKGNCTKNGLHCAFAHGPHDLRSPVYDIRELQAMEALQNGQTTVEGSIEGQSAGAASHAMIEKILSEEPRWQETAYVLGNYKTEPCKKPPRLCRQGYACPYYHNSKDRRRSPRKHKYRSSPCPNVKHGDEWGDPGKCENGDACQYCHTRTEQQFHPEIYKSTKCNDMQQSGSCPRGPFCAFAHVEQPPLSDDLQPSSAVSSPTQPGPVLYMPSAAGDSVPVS
All sequences stand within: GGGAGUUCUACAGUCCGACGAUC … CAACAGAGGAUUGAGCAUCA
Oligonucleotide | bound/input enrichment [ratio]
ACAGGAACAGGGCAGACGUUAGCGUGAGUGAUCACUCUCAAUCCCGGGGACCUGGUGGCCUCCGUCUUUCAGGUGGAACGGUGUGCGACAUGGGAAAGAAAACCAAGCGGACAGCUGACA | 0.404
UUUUCCUCUUCUUCCUCAUCCUCCUCUGGACCUAGGACUUUCUACCCUCGCCAGGGCGCCACCCGCAAAUAUCUGAUUGGAUGGAAAAAGCCAGAAGGAACCAUUAACUCCGUGGGAUUU | 0.254
UGUUUGUUUGUUUGUAGUCUUGAUGCUCUCCUGUGGUUUACUUCCCUUCUGAUAGGACACUACCGCCAGUCUCAGCACUCGUAAGUGCGGAGGGCCACAUCCAGGAAAGAAGGCAGAGCC | 0.312
CCUCCAUCUCGGAGCUGUGGCUGCUGUGGCUGGCUCUGGCCUGCCAGUGCGUUAUAGCCCUCCGGCCUAUUGAACUUACUCUCUAAGAGAGGAUAGGACACCAGGAGAGGCUGCAGCCCU | 0.127
CGGCCCAUGCAGCAGAUGCAACCCACUGCUCCCAGGAACAGUAAUCUCCGUGAACUCCCCACCGCACCUUCACAUGUUUUGGAGAUGAGUGGUAACCGAUGCUCCUCUACACCUGUUGCU | 0.375
CUUAGUCGUGUCACUCUUCUUGAAACAGAAAUGCUUUUGUCUAAAAAGAAUGAUGAAUUUACCGAGUUUAAUGAAGUUAGUGAAGACUACGCUUCUUGUAGUGACAUGGACCUUCUGAAU | 0.17
UCCUCGUCCUCUGACGUCAGUGAGGGCAGGGCAGCUGAAGCAUCUCAGGGAUUUAGAUUUCUCCGGCGAAGAUGGGGGUUGUCGUCGCUCAGCCAAAAUCAUAGCUCUGAACCAGAGGCA | 0.211
AAUGCACAUGCACAAUAAUUUCCUGAAAGCCAUAGGACAUGUCUGUAGUCAGCACCACGACCGCACCGUUUCAUGAAAGGCAUGGCGGCUGCAUUUCAUACCACAUCAAAAUACAGUAAC | 0.269
GACAUUGCAGAGCAUGCUUUGAAAAAUUCUUUAGAAACAGAUAUUCCUACUGUGAAUAUUUCCGCUGAUGAAGAAUUCCUUCCCUUCCAAGAAAACACGUUUGACCUGGUGGUUAGCAGC | 0.358
GUUGCUGCCUUUAUGGACAUGGGUACCAAUUGCUUUUUGUAAUAUGGUAAAAAUGUGAGCCCGCACUUCUGCAUUGAUUUUUUUUUUUUUGUUUAACAUGUAUUCAGAUUGAGAAUAUGA | 0.434
GGAGCAACUCAAGGAUUGAGGACUGGUUUUACAAAUAUACCAAGUAGAUAUGGAACUAAUAACCGAAUUGGACAACCAAGACCAUGAUAGACUCUAACUUAUUUUUAUAAGGAAUAUUGA | 1.23

Block 2 — target: CCNF, cyclin fold, Cln2 fusion (human); technique: yeast growth competition, sequencing; matrix: yeast; notes: strong parent motif; baseline: not given; reading: higher = stronger binding
Starting sequence: INSM1 docking peptide (human); PKAIRKLHFEDEV
Substitution | normalised enrichment score
K2Q | 7.23
E10K | 6.56
K2G | 7.09
H8Q | 7.58
R5W | -0.0951
K2V | 7.03
A3P | 7.32
D11P | 7.83
E10P | 8
D11C | 8.03
F9H | 0.341
E12T | 7.67
E12Y | 7.64
L7D | -0.117
E10A | 7.34
I4D | 3.8
F9I | 2.11
R5Q | 1.67
I4W | 6.72
D11I | 7.74
R5M | 1.25
H8K | 7.53
E12W | 7.81
A3E | 5.57
A3K | 3.07

Block 3 — technique: RNA Bind-n-Seq; molecule type: RNA; matrix: in vitro; concentration: 1 µM; notes: whole 134-nt RNA, ends assumed; with: 150 mM KCl; baseline: input library; reading: higher = stronger binding
Target: Ras GTPase-activating protein-binding protein 1, RRM domain (G3BP1, Homo sapiens, UniProt Q13283)
Chain of UniProt Q13283 (whole entry, looked up): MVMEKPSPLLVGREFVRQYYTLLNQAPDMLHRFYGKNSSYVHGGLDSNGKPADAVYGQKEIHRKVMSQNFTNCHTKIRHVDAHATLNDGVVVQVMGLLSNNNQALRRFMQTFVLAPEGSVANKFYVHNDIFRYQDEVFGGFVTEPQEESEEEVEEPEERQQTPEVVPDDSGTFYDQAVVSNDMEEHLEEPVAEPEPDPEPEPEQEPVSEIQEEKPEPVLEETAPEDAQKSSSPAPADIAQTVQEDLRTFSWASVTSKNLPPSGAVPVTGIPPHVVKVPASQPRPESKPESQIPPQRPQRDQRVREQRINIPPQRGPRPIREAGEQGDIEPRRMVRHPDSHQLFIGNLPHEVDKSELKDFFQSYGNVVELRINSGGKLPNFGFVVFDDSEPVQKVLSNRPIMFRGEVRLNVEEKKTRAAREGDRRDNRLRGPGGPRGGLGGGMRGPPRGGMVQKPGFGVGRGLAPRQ
All sequences stand within: GGGAGUUCUACAGUCCGACGAUC … UGGAAUUCUCGGGUGUCAAGG
Oligonucleotide | log2 enrichment
AAGAUUUAGAGAUGAAUUAAAUUUAAUUAGGGGUUGCUAAGAAGCGAGCACUGACCAGAUAAGAAUGCUGGUUUUCCUAAAUGCAGUGAA | -0.134
UCCUCAAGUCCUGUGCUACACAUCGUAUGUACCGAAUCGGGUGGUGGGUGGAAAGUAUUAUGUUACGCCGUUCGGAUCUGCACUUCCAGC | -0.124
GCUUUGCCUUCACUUAUUUCUUUGCUUUUUAAAAACUAUUUGUAAUGUAAUUUUAAUGCAUUUUUUACAGGCCCAGUAAUGGUUAAAUAC | -0.324
UGGCCCUGGUGGCAUGCGGGGAGGAAGAGGUGGCCUCAUGGAUCGUGGUGGUCCCGGUGGAAUGUGCAGAGGUGGCCGUGGUGGAGACAG | 1.77
UCCUGUGCUACACAUCGUAUGUACCGAAUCGGGGAAAAAGGGGUUUGGGGAAAAAGGGGAAAGUAUUAUGUUACGCCGUUCGGAUCUGCA | 0.985
AGUCCUGUGCUACACAUCGUAUGUACCGAAUCGGAAAAAGGAAAAAGGUUUUUUUGGAAAGUAUUAUGUUACGCCGUUCGGAUCUGCACU | -0.183
CCUCAAGUCCUGUGCUACACAUCGUAUGUACCGAAUCGGUUUGGAGGUUUGGAAAGUAUUAUGUUACGCCGUUCGGAUCUGCACUUCCAG | -0.258
AAAGCAAGAGAUGGCUAGUGCUUCAUCCAGCCAAAGAGGUAUGCUUGUUGCUUAAUUAAACCUUAAAGGUAACUUUGAGUUACUCCAGUA | -0.149
CUCAAGUCCUGUGCUACACAUCGUAUGUACCGAAUCGGUUUUUGGAGGUUUGGAAAGUAUUAUGUUACGCCGUUCGGAUCUGCACUUCCA | -0.285
UAACUUUAGAGGAGGAUCUGAUGUAUAUGGCAGUGGACGUGGAUUUGGGGAUGGCUAUAAUGGGUAUGGAGGAGGACCUGGAGGUGGCAA | -0.814
GGGUGGACACUGACGAGCUGGACAGCAACGUGGACGACUGGGAAGAGGAGACCAUUGAGUUCUUCGUCACUGAAGAAAUCAUUCCCCUCG | -0.275
UGGGAGGUGGAUUUUGUUUAUUUUUUUUGCUCAUUUCCAGGGGUGGGAAUUUUUUUUUAAUAUGUGUCAUGAAUAAAGUUGUUUUUGAAA | 1.6
UCCUGUGCUACACAUCGUAUGUACCGAAUCAAACCCCCCCAAAUUUAAACCCCCCCAAAAAAGUAUUAUGUUACGCCGUUCGGAUCUGCA | 0.98
UAACUUUAGAGGAGGAUCUGAUGGAUAUGGCAGUGGACGUGGAUUUGGGGAUGGCUCUAAUGGGUAUGGAGGAGGACCUGGAGGUGGCAA | -0.808

Block 4 — technique: DHFR PCA, deep sequencing; matrix: yeast; with: (+)-ABA 58 µM; baseline: wild-type fitted maximum; reading: higher = stronger binding
Target: ABI1, truncated, D143A, DHFR fusion (Arabidopsis thaliana)
Notes: methotrexate growth selection, single substitutions
Starting sequence: PYL1, truncated, DHFR fusion (Arabidopsis thaliana); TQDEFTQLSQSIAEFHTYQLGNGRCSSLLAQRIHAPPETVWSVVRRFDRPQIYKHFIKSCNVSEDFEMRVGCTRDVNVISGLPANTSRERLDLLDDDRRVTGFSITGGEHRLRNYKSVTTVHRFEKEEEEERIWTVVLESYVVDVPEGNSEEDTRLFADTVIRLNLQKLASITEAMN
Substitution | relative binding score
F47G | -2.72%
A175C | 82.7%
F157Y | 64.2%
L20A | 92.9%
N61Y | 82.1%
K116H | 81.4%
K168G | 74.5%
E109G | 74.7%
S150I | 45.6%
D159T | 41.7%
V121Y | -10.7%
S42Y | 45%
D48L | -8.09%

Block 5 — technique: aptamer microarray, sandwich; molecule type: DNA with 2'F-ANA; matrix: in vitro; concentration: 200 nM; with: Cy3 exosite-II aptamer, 400 nM; reading: higher = stronger binding; oligonucleotide: GGTTGGTGTGGTTGG
Target: Prothrombin, mature alpha-thrombin (F2, Homo sapiens, UniProt P00734)
Notes: whole 15-mer aptamer, many near background
Modification | mean fluorescence intensity
2'F-ANA at 2 4 7 8 9 11 12 13 15 | 340 a.u.
2'F-ANA at 1 2 6 8 9 13 14 15 | 55.4 a.u.
2'F-ANA at 2 5 7 8 10 11 14 | 105 a.u.
2'F-ANA at 1 2 4 6 13 14 | 113 a.u.
2'F-ANA at 1 9 10 12 13 14 15 | 46.7 a.u.
2'F-ANA at 1 3 4 5 6 7 8 15 | 68 a.u.
2'F-ANA at 4 6 9 10 12 14 15 | 69.7 a.u.
2'F-ANA at 1 4 8 9 10 11 15 | 52.6 a.u.
2'F-ANA at 1 4 6 7 13 | 71.9 a.u.
2'F-ANA at 3 5 8 9 10 12 15 | 68.3 a.u.
2'F-ANA at 7 9 12 14 15 | 234 a.u.
2'F-ANA at 1 5 11 12 13 15 | 66.7 a.u.
2'F-ANA at 1 2 3 4 8 9 10 12 | 76.3 a.u.
2'F-ANA at 1 4 5 6 10 14 | 47.2 a.u.
2'F-ANA at 1 3 5 6 13 15 | 49.7 a.u.
2'F-ANA at 1 2 4 5 6 7 8 10 11 14 | 48.4 a.u.
2'F-ANA at 3 5 12 | 319 a.u.
2'F-ANA at 2 7 10 11 13 15 | 149 a.u.
2'F-ANA at 1 4 5 7 8 10 15 | 50.9 a.u.
2'F-ANA at 5 6 8 9 10 12 | 50.4 a.u.
2'F-ANA at 1 5 8 9 10 12 14 | 69.9 a.u.
2'F-ANA at 1 3 5 6 8 9 10 11 13 15 | 48.6 a.u.
2'F-ANA at 1 2 3 6 7 8 9 11 15 | 183 a.u.
2'F-ANA at 1 3 6 9 11 12 13 15 | 313 a.u.
2'F-ANA at 2 8 9 11 14 15 | 124 a.u.

Repeated from above (block 4):
Substitution | relative binding score
A175C | 82.7%
F157Y | 64.2%
L20A | 92.9%
N61Y | 82.1%
K116H | 81.4%
K168G | 74.5%
